Experimental data pooled from the literature.
Protocols differ between the studies behind these lines. Numbers after ± are the reported error.

With `CC(C)Oc1ccc(-c2ccc3cnc(-c4ccc(OC(C)C)cc4)n3c2)cc1` the EC50 was > 0.02 µM (vesicular stomatitis virus; viral entry, inhibitor; pseudotyped with Junin virus glycoprotein).
`Cn1cnc(Cn2c(=O)[nH]/c(=N\c3cc4cn(C)nc4cc3Cl)n(Cc3cc(F)c(F)cc3F)c2=O)n1` has a renal clearance of 0.935 mL/min (human, normal renal function; oral, 375 mg, single dose, geometric mean).
For `CC(Nc1nc(N2CCNCC2C)nc2ccccc12)c1ccccc1` (stereo not shown), the AC50 was 8.91 µM (SARS-CoV-2; cytopathic effect, cell-based CPE; USA_WA1/2020; round 2, 5-point dilution).
The EC50 of `COc1c(C)c2c(c(O)c1C/C=C(\C)CCC(=O)O)C(=O)OC2` is reported as 1 ± 0.6 µM (Junin virus; viral replication, inhibitor; Vero, Candid #1).
`CCN(CC)CCNC(=O)c1cc(-c2ccc(Br)s2)nc2ccccc12` has a maximum response of 72% (SARS-CoV-2; cytopathic effect; USA_WA1/2020; round 1, 5-point).
For `COc1ccc(C2(C(=O)N3CCC4(CC3)CC(CNS(C)(=O)=O)CCO4)CCCC2)cc1` (stereo not shown), the EC50 was > 39.8 µM (Venezuelan equine encephalitis virus; viral replication).
`Cc1cc2ncn(-c3ccc(OC(C)(C)C)cc3)c2cc1-c1ccc(OC(C)(C)O)cc1` has an EC50 of ≤ 0.004 µM (vesicular stomatitis virus; viral entry, inhibitor; pseudotyped with Machupo virus glycoprotein).
For `Cc1cc(C)c2sc(NC(=O)c3cc4ccccc4o3)nc2n1`, the EC50 was > 32 µM (Yellow fever virus; cytopathic effect, neutral red uptake; Huh-7).
For `S=c1[nH]nc(NCNc2n[nH]c(=S)s2)s1`, the EC50 was 64 µg/mL (Xanthomonas oryzae pv. oryzicola; bacterial growth).
The EC50 of `CS(=O)(=O)NCC1CCOC2(CCN(C(=O)C3(c4ccc(Cl)cc4)CCCC3)CC2)C1` (stereo not shown) is reported as > 39.8 µM (Venezuelan equine encephalitis virus; viral replication).
For `NC(=O)c1nc(F)c[nH]c1=O`, the EC50 was 24 µM (yellow fever virus; viral replication; BHK-21; 72 h).
`NCC(=O)NCC(=O)N1Cc2cc(Cl)ccc2CC1c1ccccc1` (stereo not shown) has an EC50 of 26 µM (SARS-CoV; viral replication; Vero 76; 72 h).
The EC50 of `CO[C@H]1/C=C/O[C@@]2(C)Oc3c(C)c(O)c4c(O)c(c(/C=N/N5CCN(C6CCCC6)CC5)c(O)c4c3C2=O)NC(=O)/C(C)=C\C=C\[C@H](C)[C@H](O)[C@@H](C)[C@@H](O)[C@@H](C)[C@H](OC(C)=O)[C@@H]1C` is reported as 0.436 µM (Yellow fever virus; viral replication; SH-SY5Y).
`Cc1cc2nnn(-c3ccc(OC(C)C)cc3)c2cc1-c1ccc(OC(C)C)cc1` has an EC50 of < 0.001 µM (Junin virus; viral replication).
The EC50 of `Nc1ccn(C[C@@H](CO)OCP(=O)(O)O)c(=O)n1` is reported as 10 µM (vaccinia virus; viral replication; HEL).
`N#Cc1c(Nc2ccc(F)cc2)n[nH]c1NS(=O)(=O)c1ccc2ccccc2c1` has an EC50 of > 8 µM (Eastern equine encephalitis virus; viral replication; Huh-7).
The EC50 of `Nc1nc(Nc2ccc3c(c2)CC[C@@H](N2CCCC2)CC3)nn1-c1cc2c(nn1)-c1ccccc1CCC2` is reported as 1.78 µM (SARS-CoV-2; viral replication, GFP plate reader screen; BetaCov/Belgium/GHB-03021/2020; cell-based).
For `oseltamivir carboxylate`, the EC50 was 45 µM (Influenza B virus; viral replication, visual CPE score).
`CC1=C[C@]23C(=O)[C@@H](C=C(CO)[C@@H](O)[C@]2(O)[C@H]1O)[C@H]1[C@@H](C[C@H]3C)C1(C)C` has an EC50 of 0.02 µM (Severe acute respiratory syndrome coronavirus; pseudoparticle entry; Vero C1008; 48 h).
The EC50 of `CC(C)(C(=O)N1CCC2(CC1)CC(CNS(C)(=O)=O)CCO2)c1ccccc1` (stereo not shown) is reported as > 39.8 µM (Venezuelan equine encephalitis virus; viral replication).
`O=C(Nc1csc(N2CCOCC2)n1)c1ccc(CN2CCOCC2)cc1` gave an EC50 of > 100 µM (Lake Victoria marburgvirus; viral entry; A549; MARV-GP pseudovirus).
`CS(=O)(=O)NCC1CCOC2(CCN(C(=O)C3(c4cccc(Cl)c4)CCCC3)CC2)C1` (stereo not shown) gave an EC50 of 10 µM (Venezuelan equine encephalitis virus; viral replication).
With `CCC(C)n1ncn(-c2ccc(N3CCN(c4ccc(OCC5COC(Cn6cncn6)(c6ccc(Cl)cc6Cl)O5)cc4)CC3)cc2)c1=O` (stereo not shown) the EC50 was 1.23 ± 0.59 µM (poliovirus 1; viral replication, inhibitor; 72 h).
The EC50 of `NC(=O)c1ncn([C@@H]2O[C@H](CO)[C@@H](O)[C@H]2O)n1` is reported as 5.1 ± 2.08 µM (Lassa virus; Huh-7).
With `Nc1ncnc2c([C@@H]3N[C@H](CO)[C@@H](O)[C@H]3O)c[nH]c12` the inhibition was 3% (Western equine encephalitis virus; viral replication, inhibitor; Vero 76; 0.1 µM).
Under “subjects with upper respiratory infection”, `CC[C@H](C)[C@H](NC(=O)[C@H](CC(C)C)NC(=O)[C@H](Cc1c[nH]c2ccccc12)NC(=O)[C@H](CCC(N)=O)NC(=O)[C@@H](NC(=O)[C@H](Cc1ccccc1)NC(=O)[C@H](C)NC(=O)[C@H](CCCCNC(=O)COCCOCCNC(=O)COCCOCCNC(=O)CC[C@H](NC(=O)CCCCCCCCCCCCCCCCCCC(=O)O)C(=O)O)NC(=O)[C@H](CCC(N)=O)NC(=O)[C@H](C)NC(=O)[C@@H](NC(=O)[C@H](CCCCN)NC(=O)[C@H](CC(=O)O)NC(=O)[C@H](CC(C)C)NC(=O)C(C)(C)NC(=O)[C@@H](NC(=O)[C@H](CO)NC(=O)[C@H](Cc1ccc(O)cc1)NC(=O)[C@H](CC(=O)O)NC(=O)[C@H](CO)NC(=O)[C@@H](NC(=O)[C@H](Cc1ccccc1)NC(=O)[C@@H](NC(=O)CNC(=O)[C@H](CCC(=O)O)NC(=O)C(C)(C)NC(=O)[C@@H](N)Cc1ccc(O)cc1)[C@@H](C)O)[C@@H](C)O)[C@@H](C)CC)[C@@H](C)CC)C(C)C)C(=O)N[C@@H](C)C(=O)NCC(=O)NCC(=O)N1CCC[C@H]1C(=O)N[C@@H](CO)C(=O)N[C@@H](CO)C(=O)NCC(=O)N[C@@H](C)C(=O)N1CCC[C@H]1C(=O)N1CCC[C@H]1C(=O)N1CCC[C@H]1C(=O)N[C@@H](CO)C(N)=O` is recorded as 0% (healthy subjects; all MAD doses).
The EC50 of `Cc1cccc(C)c1NC(=O)CN1CCN(CCCC(c2ccc(F)cc2)c2ccc(F)cc2)CC1` is reported as > 100 µM (SARS-CoV-2; viral replication, high-content imaging screen; cell-based).
For `NC(=O)c1nc(F)c[nH]c1=O`, the EC50 was 64 µM (Mammarenavirus choriomeningitidis; viral replication; KB).
`COc1cccc(C(=O)NCC2CCOC3(CCN(C(=O)C4(c5ccccc5)CCCC4)CC3)C2)c1` (stereo not shown) gave an EC50 of 6.31 µM (Venezuelan equine encephalitis virus; viral replication).
`CC(=O)[C@@]12O[C@](C)(c3ccccc3)O[C@@H]1C[C@H]1[C@@H]3CCC4=CC(=O)CC[C@]4(C)[C@H]3CC[C@@]12C` gave an EC50 of > 12.6 µM (SARS-CoV-2; viral replication, high-content imaging screen; cell-based).
`CNC(=O)[C@@H](NC(=O)[C@H](CC(C)C)[C@H](O)C(=O)NO)C(C)(C)C` — result for “remaining fibrinogen Aα chain”: 0.449 (human fibrinogen; SDS-PAGE; Daboia russelii; concentration not given, unit not given, added: MP venom; reference: untreated fibrinogen).
The EC50 of `CCCCOc1cc(C(=O)NCCN(CC)CC)c2ccccc2n1` is reported as 29.5 µM (SARS-CoV-2; viral replication, high-content imaging screen; cell-based).
`Cc1cc2ncn(-c3ccc(OC(C)C)cc3)c2cc1-c1ccc(OC(C)C)cc1` has an EC50 of < 0.0033 µM (Lassa virus; viral replication).
The EC50 of `NC12CC3CC(CC(C3)C1)C2` is reported as 0.54 ± 0.11 µM (Influenza A virus H1N1; viral replication; A/Brisbane/59/2007).
The EC50 of `O=C1c2c(O)c(=O)ccn2N([C@@H]2c3ccccc3SCc3c2ccc(F)c3F)[C@@H]2COCCN12` is reported as 0.0002 ± 2e-05 µM (Influenza A virus; viral replication; A(H7N1); mean).
`Nc1nc(O)c2ncn(COC(CO)CO)c2n1` gave an EC50 of > 100 µM (vaccinia virus; viral replication; HEL).
For `CC(C)Oc1ccc(-c2ccn3cnc(-c4ccc(OC(C)C)cc4)c3c2)cc1`, the EC50 was > 0.02 µM (vesicular stomatitis virus; viral entry, inhibitor; pseudotyped with Lassa virus glycoprotein).
`CCOc1ncc(NC(=O)c2cc3occc3n2Cc2ccc(Cl)cc2)cc1F` has an EC50 of > 100 µM (Marburg virus; pseudovirus entry; A549).
`CN(C)S(=O)(=O)NCC1CCOC2(CCN(C(=O)C3(c4cccnc4)CCCC3)CC2)C1` (stereo not shown) has an EC50 of > 39.8 µM (Venezuelan equine encephalitis virus; viral replication).
With `O=c1ccn([C@@H]2O[C@](F)(CO)[C@@H](O)[C@H]2O)c(=O)[nH]1` the EC50 was 0.11 ± 0.09 µM (Junin virus; viral replication; HeLa, Romero).
For `CN(C)S(=O)(=O)NCC1CCOC2(CCN(C(=O)C3(c4ccccc4)CCCO3)CC2)C1` (stereo not shown), the EC50 was > 39.8 µM (Venezuelan equine encephalitis virus; viral replication).
For `O=C(N1CCC2(CC1)C[C@@H](CN1CCCCS1(=O)=O)CCO2)C1(c2ccccc2)CCCC1`, the EC50 was > 32 µM (Influenza A virus H5N1; viral replication; MDCK).
The EC50 of `COc1ccc2[nH]c(C(O)c3ccc(Cl)cc3)c(CCNC(C)=O)c2c1` (stereo not shown) is reported as 0.631 µM (lentivirus, spike-pseudotyped, SARS-CoV-2; viral entry; HEK293).
`CCOC(=O)Oc1c(OC)cc(C(=O)O[C@@H]2C[C@@H]3CN4CCc5c([nH]c6cc(OC)ccc56)[C@H]4C[C@@H]3[C@H](C(=O)OC)[C@H]2OC)cc1OC` gave an EC50 of > 100 µM (SARS-CoV-2; viral replication, high-content imaging screen; cell-based).
`N#C[C@@]1(n2ccc(N)nc2=O)O[C@H](CO)[C@@H](O)[C@H]1O` gave an EC50 of > 20 µM (chikungunya virus; viral replication, cell-based).
For `NC(=O)c1ncn([C@@H]2O[C@H](CO)[C@@H](O)[C@H]2O)n1`, the EC50 was 13.8 ± 11.2 µM (Junin virus; viral replication, inhibitor; Vero, Candid #1).
For `O=C(O)[C@H]1O[C@@H](Oc2cc3oc(-c4ccccc4)cc(=O)c3c(O)c2O)[C@H](O)[C@@H](O)[C@@H]1O`, the EC50 was 25 to 50 µg/mL (SARS coronavirus; FRhK-4; 72 h).
With `NC(=O)c1ncn([C@@H]2O[C@H](CO)[C@@H](O)[C@H]2O)n1` the EC50 was 17 µM (Rift Valley fever virus; viral replication; MDCK).
`CN(C)S(=O)(=O)N(C)CC1CCOC2(CCN(C(=O)C3(c4ccccc4)CCCC3)CC2)C1` (stereo not shown) has an EC50 of 12.6 µM (Venezuelan equine encephalitis virus; viral replication).
With `CC(=O)c1ccc2c(c1)N(CCCN1CCN(CCO)CC1)c1ccccc1S2` the EC50 was > 100 µM (SARS-CoV-2; viral replication, GFP plate reader screen; cell-based).
With `Nc1ccn(C[C@@H](CO)OCP(=O)(O)O)c(=O)n1` the EC50 was 7.3 ± 4.6 µM (Vaccinia virus; viral replication; Lederle).
The EC50 of `CC(C)N1CCN(c2ccc(OCC3COC(Cn4cncn4)(c4ccc(Cl)cc4Cl)O3)cc2)CC1` (stereo not shown) is reported as > 12.6 µM (SARS-CoV-2; viral replication, high-content imaging screen; cell-based).
With `CN(C)C1CCN(C(=O)c2cc3ccccc3n2Cc2ccc(F)cc2)CC1` the EC50 was > 20 µM (Marburg virus; viral replication; Huh-7, Angola).
`Nc1ccn(C[C@@H](CO)OCP(=O)(O)O)c(=O)n1` has an EC50 of 24.9 ± 2.4 µM (Monkeypox virus; viral replication; Vero).
The EC50 of `Cc1cc2nc3c(=O)[nH]c(=O)nc-3n(C[C@H](O)[C@H](O)[C@H](O)CO)c2cc1C` is reported as 11.2 µM (SARS-CoV-2; viral replication, GFP plate reader screen; cell-based).

Excerpt of the above:
The EC50 of `Nc1nc(Nc2ccc3c(c2)CC[C@@H](N2CCCC2)CC3)nn1-c1cc2c(nn1)-c1ccccc1CCC2` is reported as 1.78 µM (SARS-CoV-2; viral replication, GFP plate reader screen; BetaCov/Belgium/GHB-03021/2020; cell-based).
The EC50 of `Cc1cccc(C)c1NC(=O)CN1CCN(CCCC(c2ccc(F)cc2)c2ccc(F)cc2)CC1` is reported as > 100 µM (SARS-CoV-2; viral replication, high-content imaging screen; cell-based).
The EC50 of `COc1ccc2[nH]c(C(O)c3ccc(Cl)cc3)c(CCNC(C)=O)c2c1` (stereo not shown) is reported as 0.631 µM (lentivirus, spike-pseudotyped, SARS-CoV-2; viral entry; HEK293).
The EC50 of `Cc1cc2nc3c(=O)[nH]c(=O)nc-3n(C[C@H](O)[C@H](O)[C@H](O)CO)c2cc1C` is reported as 11.2 µM (SARS-CoV-2; viral replication, GFP plate reader screen; cell-based).
`CS(=O)(=O)NCC1CCOC2(CCN(C(=O)C3(c4cccc(Cl)c4)CCCC3)CC2)C1` (stereo not shown) gave an EC50 of 10 µM (Venezuelan equine encephalitis virus; viral replication).
With `CC(=O)c1ccc2c(c1)N(CCCN1CCN(CCO)CC1)c1ccccc1S2` the EC50 was > 100 µM (SARS-CoV-2; viral replication, GFP plate reader screen; cell-based).
The EC50 of `CO[C@H]1/C=C/O[C@@]2(C)Oc3c(C)c(O)c4c(O)c(c(/C=N/N5CCN(C6CCCC6)CC5)c(O)c4c3C2=O)NC(=O)/C(C)=C\C=C\[C@H](C)[C@H](O)[C@@H](C)[C@@H](O)[C@@H](C)[C@H](OC(C)=O)[C@@H]1C` is reported as 0.436 µM (Yellow fever virus; viral replication; SH-SY5Y).
For `NC(=O)c1nc(F)c[nH]c1=O`, the EC50 was 24 µM (yellow fever virus; viral replication; BHK-21; 72 h).
